Assay results pooled from the literature.
Lines come from different studies, so protocols differ.
Target: Cytochrome P450 2D6 (CYP2D6, Homo sapiens, UniProt P10635)
UniProt P10635, sequence (whole entry, looked up): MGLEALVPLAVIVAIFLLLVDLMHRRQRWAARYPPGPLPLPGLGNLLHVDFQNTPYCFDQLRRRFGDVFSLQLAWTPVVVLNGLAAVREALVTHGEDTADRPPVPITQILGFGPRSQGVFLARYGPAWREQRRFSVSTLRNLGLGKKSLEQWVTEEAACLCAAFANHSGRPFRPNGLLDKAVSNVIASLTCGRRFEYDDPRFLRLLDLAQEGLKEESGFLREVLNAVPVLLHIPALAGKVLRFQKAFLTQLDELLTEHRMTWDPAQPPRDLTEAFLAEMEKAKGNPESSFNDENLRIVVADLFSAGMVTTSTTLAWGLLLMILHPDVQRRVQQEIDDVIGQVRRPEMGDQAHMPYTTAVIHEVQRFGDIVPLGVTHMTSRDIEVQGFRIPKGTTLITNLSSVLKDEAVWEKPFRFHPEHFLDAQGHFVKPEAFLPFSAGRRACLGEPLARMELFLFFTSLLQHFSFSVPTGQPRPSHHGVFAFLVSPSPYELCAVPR
Action: inhibitor

SMILES = O=c1nc(NO)ccn1[C@@H]1O[C@H](CO)[C@@H](O)[C@H]1O; assay = enzyme activity; system = human, liver microsomes; setting = 20 min, pH 7.4; IC50 = > 100 µM
SMILES = CCc1nc(N)nc(N)c1C#CC(C)c1cc(-c2cc(C)nc(C)c2)ccc1OC (stereo not drawn); assay = enzyme activity, fluorescence; setting = 30 min; IC50 = 9.8 µM
SMILES = C=CC(=O)Nc1cc(Nc2nccc(-c3cn(C)c4ccccc34)n2)c(OCC(F)(F)F)nc1N(C)CCN(C)C; assay = enzyme activity; system = human, liver microsomes; IC50 = > 100 µM
SMILES = C=C(C)C(=O)Nc1ccc(-c2c(-c3ccc(Oc4nccc(C)n4)cc3)c3c(N)ncnc3n2C)cc1; assay = enzyme activity; IC50 = 3.6 µM
SMILES = COc1ccc2c(c1OCc1ccccc1)C[C@@H](C(=O)O)N(c1nc3ccc(C#N)cc3o1)C2; assay = enzyme activity; system = human, liver microsomes; setting = 15 min, pH 7.4; IC50 = > 50 µM
SMILES = C[C@@H](c1ccn(Cc2ccc(OC(F)(F)F)cc2)n1)[C@](O)(Cn1cnnn1)c1ccc(F)cc1F; assay = enzyme activity; system = human, liver microsomes; IC50 = 0.549 µM
SMILES = O=C1c2oc3cc(O)c(O)cc3c2C(=O)c2oc3cc(O)c(O)cc3c21; assay = dextromethorphan O-demethylation; system = pooled human liver microsomes; setting = 60 min, pH 7.4, 37 °C, preincubation 0 min without NADPH; IC50 = 3.4 µM
SMILES = NC(=O)c1c(F)ccc(OCc2nc3cc(Cl)cnc3s2)c1F; assay = enzyme activity, fluorescence; IC50 = > 33.7 µM
SMILES = CCc1nc(N)nc(N)c1C#CC(C)c1cc(-c2cc(C)nc(C)c2)ccc1Cl (stereo not drawn); assay = enzyme activity, fluorescence; setting = 30 min; IC50 = > 50 µM
SMILES = COC(=O)c1ccc2c(c1)NC(=O)/C2=C(\Nc1ccc2c(c1)CCN2C(=O)CN1CCOCC1)c1ccccc1; system = recombinant enzyme; setting = 10 min, added: dextromethorphan 5 µM; IC50 = > 80 µM
SMILES = CCC(=O)N(C)c1ccc(Cl)c(Cl)c1; assay = enzyme activity; system = human, liver microsomes; setting = 10 min; IC50 = > 25 µM
SMILES = C[C@@H](c1ccn(Cc2ccc(Cl)c(Cl)c2)n1)[C@](O)(Cn1cnnn1)c1ccc(F)cc1F; assay = enzyme activity; system = human, liver microsomes; IC50 = 5.49 µM
SMILES = O=C(NC1CCC(F)(F)CC1)C(c1cncnc1)N(C(=O)C(F)Cl)c1ccc(-c2cncs2)cc1 (stereo not drawn); assay = enzyme activity; setting = 10 (unit not given); IC50 = 6.5 µM
SMILES = CC1CCC2(OC1)OC1CC3C4CC=C5CC(OC6OC(CO)C(OC7OC(CO)C(O)C7O)C(O)C6OC6OC(C)C(O)C(O)C6O)CCC5(C)C4CCC3(C)C1(O)C2C (stereo not drawn); assay = enzyme activity; system = human, liver microsomes; setting = 1 h, pH 7.4; IC50 = 13.9 µM
SMILES = C[C@](C(=O)NC1CCOCC1)(c1cncnc1)N(C(=O)[C@H](F)Cl)c1ccc(OC(F)(F)Cl)cc1; assay = enzyme activity; setting = 10 (unit not given); IC50 = > 50 µM
SMILES = Cc1c(NC(=O)c2ccc3c(c2)CC[C@@H]2C[C@@](O)(C(F)(F)F)CC[C@@]32Cc2ccccc2)ccc[n+]1[O-]; assay = enzyme activity; system = human, liver microsomes; IC50 = 39 µM
SMILES = C[C@@H](c1ccn(Cc2ccc(Cl)cc2Cl)n1)[C@](O)(Cn1cnnn1)c1ccc(F)cc1F; assay = enzyme activity; system = human, liver microsomes; IC50 = 0.15 µM
SMILES = Cc1cc(/C=C/C#N)cc(C)c1Oc1nc(NC2CCN(Cc3ccc(S(C)(=O)=O)cc3)CC2)nc2ncccc12; assay = enzyme activity; setting = 10 min; IC50 = 12.7 µM

Some of these lines once more:
SMILES = O=c1nc(NO)ccn1[C@@H]1O[C@H](CO)[C@@H](O)[C@H]1O; assay = enzyme activity; system = human, liver microsomes; setting = 20 min, pH 7.4; IC50 = > 100 µM
SMILES = CCc1nc(N)nc(N)c1C#CC(C)c1cc(-c2cc(C)nc(C)c2)ccc1OC (stereo not drawn); assay = enzyme activity, fluorescence; setting = 30 min; IC50 = 9.8 µM
